Published values from different studies.
Parts stem from different laboratories: compare values within a part only.

Series 1 — method: protein-binding microarray; form: double-stranded DNA, one strand shown; matrix: in vitro; concentration: not given; reading: higher = stronger binding
Target: Hepatocyte nuclear factor 3-beta, forkhead domain (FOXA2, Homo sapiens, UniProt Q9Y261, residues 142-269)
Setting: k-mer, scored over probes, only values ≥0.25
Construct (chain): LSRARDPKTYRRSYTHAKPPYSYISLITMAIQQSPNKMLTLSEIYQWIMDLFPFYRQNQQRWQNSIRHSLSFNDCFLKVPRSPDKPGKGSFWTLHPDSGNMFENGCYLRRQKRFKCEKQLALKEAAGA
Sequence	E-score
CAACTAAA	0.277
ATATTACC	0.349
CAACGATA	0.291
ACATGTAC	0.26
AGTACAAT	0.284
ACTTTACC	0.257
ATGTGGAA	0.305
ATTGTAAG	0.25
AACACTAG	0.279
ACATGATA	0.354
TACTACTA	0.267
TATTCCAA	0.264
AGCATATG	0.276
ATACATGG	0.335
ATGCAAAC	0.274
ATAGTAAA	0.279
CTAACATA	0.31
ACCATATA	0.433
TATACCGA	0.324
GTCATATA	0.288
AAAATATC	0.256
CTATTCCA	0.257

Series 2 — method: protein-binding microarray; form: double-stranded DNA, one strand shown; matrix: in vitro; concentration: 250 nM; setting: 60-bp whole probe; together with: salmon DNA 0.4 mg/ml; reference: random background probes; reading: higher = stronger binding; all sequences stand within: GCCTAGCAC … GTCTTGATTCGCTTGACGCTGCTG
Target: Interferon regulatory factor 5, full length, phosphomimetic (IRF5, Homo sapiens, UniProt Q13568-2, residues 1-514, K96S/S451D/S453D/S456D/S462D)
Sequence	log fluorescence [z-score]
AATTTTGTCATCTATAATGGAGTGCTA	0.92
GATGGTTTCGGGTTTCGGGACGTGCTA	8.73
GACGGTTCCGGTTTCGTGACGTGCTAG	2.08
TCACTTTTGAGAGATGGAACTGTGCTA	0.566
TTCGGTTTCGGTTCCGGTTAGTGCTAG	11.1
TTGGGTATCCTTATCCTTTAGTGCTAG	-0.176
TTAGAACTGAGTCTCGATCAGTGCTAG	0.424
GACGGTCTTCTTCTCCTGACGTGCTAG	0.0517
TTAGACATCAGTCTCGATTAGTGCTAG	0.809
GACGGACTGCTCCTCCTGACGTGCTAG	-0.632
TAGCATGTAATTTGTTTGCAGTGCTAG	0.273
CACGATTCCAGTTTCGAGACGTGCTAG	5.25
TGCTCCTTCTGACATCAACCCGTGCTA	0.185
GACGAACTGCGACTGGAGACGTGCTAG	-0.298
GAACATTTCCTTTACATTCCGTGCTAG	0.952
TTAGGAATGGGTCTCGGTTAGTGCTAG	0.0851
TTAGGTCTCAGTCTCGATTAGTGCTAG	0.577
GACGATATAGGGACTGGAGACGTGCTA	-0.199
TCATTTTGCTTTCTTTTACTGTGCTAG	2.88
GACGGTTTCGGTATCAGGACGTGCTAG	9.63
TCAGACTTGATTTTGGTACTGTGCTAG	0.318
GACGATTCCATTTTCGAGACGTGCTAG	2.34
GACGATTTCGGGACCGGAGACGTGCTA	2
CTCGTTTACATTTTCCAAATGTGCTAG	0.671
TCAAGGCCAGGGTTTCTGTTGTGCTAG	0.366

Series 3 — method: RNA Bind-n-Seq; form: RNA; matrix: in vitro; concentration: 365 nM; reference: no-protein control; reading: higher = stronger binding
Target: RNA binding protein fox-1 homolog 2, RRM domain, GST-SBP tag (RBFOX2, Homo sapiens, UniProt O43251-10, residues 100-194)
Setting: natural RNA segment, single round, ends assumed
All sequences stand within: GGGAGUUCUACAGUCCGACGAUC … UGGAAUUCUCGGGUGCCAA
Target sequence (chain): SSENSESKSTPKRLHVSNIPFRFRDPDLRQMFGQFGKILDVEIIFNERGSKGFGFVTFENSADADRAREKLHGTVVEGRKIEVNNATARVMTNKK
Sequence	RBNS enrichment (R)
UGAAGAGUUUUAGGAAUAAAUACAUUUUAUAGAAUGGAAACCCAGUAUGGUACUGGGGAAGUUUAUUCAUGCUUGCAAUCUUGUUUGGAAAUAAAAUGGGUCCGUCUGGA	2.26
AUGACGAUGAUGAUAGCAGUGACUAGGACACAUUUGGGAGUAUUUAAUCAGGUGUGGCUAUCUGAGAAAUCAACUUUGGGGGAAAUGUAAGAUUCUGAGCUCUCUCUCUG	1.38
GAGCGCAGAGUGUAAAAUUUUAAUUCAAAAUGGUGGCUAUACUCACUACACAUAAAUCUCAUAAUCUUUUUGUCUUUGGAGAUUCCAUUGUGGACAGUAAUACGCAGUUA	0.908
UGUCAGACUGUGGCUUAGCUCAGUGUGACCCAGACCUUGUGACCUGUAGCUGCCGAACCAGUAGCUCCUAAGAGCACAACCCAGGAUGGCCCAUCUGCUGCCCACCAAGU	0.261
CUGAAUAUAGGAAGCAUAUACUUAAUUGUAACUUCUUAUGUUUAAAGGAAAAUUCUCAGUGUGAUAUACAGAUAUAUUUAAUUGUGUCAUAUUAAACCUUCUGAUUUCAU	0.336
GGAAGCAGGUGUGAUUACUUUUUUGCUCGUAGAUAUUGUCCUAAGUUGGAAUUCUCCCACUGCCCUAAAACUUUCCCUAGUAGUCCUUUAAACUCCCCCCUCCCUUUUUG	1.28
GUCUUCACAGAAAAUACAUGUUCCUUCCCCGUGGUUCCUGUACUCAUUUUAACGUGUUGUUUAUUCUGUUUCACGACCUACAUACAGUUCUUGUGCAUCAGGAUAUAUCA	0.429
UUACUGAGGGAGCCAGGCUCUGCCGUCCAAAUGUAGGCCUUUUGUUGUGUUGUAUUUUUGUUUUUAAAUAAAAGUACAGUAUAAAUUUUCCUAUUAAAUAAGAUUAUUUU	0.392
UGAUGUGAUUAAAUUAUAGUUCCUGCUGUUAAAUUGCCUUUUGAAAACUUGGCUCCAGGGUUGGUGCUUCUUAAAUGGGGAAAGGCACAGUGAACUUCAGCCAUAUUAAG	0.556
GCACAAAUACGUCUGUGUGGGACAGUCCACUGAACGUCGUCAUUUAGUCCAGCCCAUUGCAGGCAUUCCUGGAACAGGUGAGAGGGUUUCUACUUCCCAUGAAGUAUAUA	1.45
ACGACGCUGUUCUUAGUUCACUAAUGUUAGCCUUAUUUAGGACAAAGUCAGCCAGACACCUUGUACUGGGCACGCGUCAGACCACAGCCGGCCGUUUCCUUUCUUUAGCC	0.443
GCUCACUAGCAGGACACUGAAGGGUGUCCUUCAUCAUUAAGGCAGUGUGAUGUCAUGUUUGGUCAUUUUUCUUUUGUCCAGGGAAUGGAUAAUGACAUUCUGUCACCCAC	0.376

Series 4 — method: RNA Bind-n-Seq; form: RNA; matrix: in vitro; concentration: 200 nM; setting: whole 134-nt RNA, ends assumed; together with: 150 mM KCl; reference: input library; reading: higher = stronger binding
Target: Ras GTPase-activating protein-binding protein 1, full length (G3BP1, Homo sapiens, UniProt Q13283)
UniProt Q13283, sequence (whole entry, looked up): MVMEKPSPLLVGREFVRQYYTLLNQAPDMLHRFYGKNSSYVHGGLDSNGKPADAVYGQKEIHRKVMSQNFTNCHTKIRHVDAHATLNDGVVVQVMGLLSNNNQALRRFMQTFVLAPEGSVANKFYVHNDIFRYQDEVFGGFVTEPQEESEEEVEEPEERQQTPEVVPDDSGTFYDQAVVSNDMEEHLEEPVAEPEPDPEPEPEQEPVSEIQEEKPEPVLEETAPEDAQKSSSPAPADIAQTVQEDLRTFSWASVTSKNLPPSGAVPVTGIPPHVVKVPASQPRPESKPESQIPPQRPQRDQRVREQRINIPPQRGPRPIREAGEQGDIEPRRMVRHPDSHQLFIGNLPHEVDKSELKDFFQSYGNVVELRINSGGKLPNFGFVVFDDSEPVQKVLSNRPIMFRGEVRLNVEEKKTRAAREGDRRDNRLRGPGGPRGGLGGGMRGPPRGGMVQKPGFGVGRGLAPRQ
All sequences stand within: GGGAGUUCUACAGUCCGACGAUC … UGGAAUUCUCGGGUGUCAAGG
Sequence	log2 enrichment
GUCCUGUGCUACACAUCGUAUGUACCGAAUCGGGGCCCCCGGCCCCCGGCCCCCGGGGAAAGUAUUAUGUUACGCCGUUCGGAUCUGCAC	-0.437
UUUCCAAGAAGUGCACUGAAAAUGACAUCCGAGUCAUGUUCUCUUCGUUUGGACAGAUUGAAGAAUGCCGGAUAUUGCGGGGACCUGAUG	0.296
CAAGUCCUGUGCUACACAUCGUAUGUACCGAAUCGGGGAGGGGUUUGGGGAGGGGAAAGUAUUAUGUUACGCCGUUCGGAUCUGCACUUC	1.5
AGUCCUGUGCUACACAUCGUAUGUACCGAAUCGGAAAAAGGGGAAAAAGGAAAAAGGGAAAGUAUUAUGUUACGCCGUUCGGAUCUGCAC	-0.912
UGGCCCUGGUAGCAUGCGGGGAGGAAGAGGUGGCCUCAUGGAUCGUGGUGGUCCCGGUGGAAUGUUCAGAGGUGGCCGUGGUGGAGACAG	0.144
UCAAGUCCUGUGCUACACAUCGUAUGUACCGAAUCGGGGCCGGGCCGGGGCCGGAAAGUAUUAUGUUACGCCGUUCGGAUCUGCACUUCC	-0.475
GCAGGAAGUAAAAACAAAUGGAAAUGCUUCGGAUAGUGGCAGAAAUGGGGGUUGCUAAGGAAAGGGUGGGAUGGGAGUGGGUAAAGAGUU	0.824
UCAAGUCCUGUGCUACACAUCGUAUGUACCGAAUCGGAAAAAGGUGGUUUUUGGAAAGUAUUAUGUUACGCCGUUCGGAUCUGCACUUCC	-1.07
UGGGAGGUGGAUUUUGUUUAUUUUUUUAGCUCAUUUCCAGGGGUGGGAAUUUUUUUUUAAUAUGUGUCAUGAAUAGAGUUGUUUUUGAAA	0.269
UUCUGCACCUCUGCUACCUAAAGAAGACCCAAUCUUCACAUAUUUAUCUAAACGGUUAGGAAGGAGUAUAGAUGACAUAGGUCACCUCAU	0.18
CUCAAGUCCUGUGCUACACAUCGUAUGUACCGAAUCGGGCCGGCCGGGCCGGGGAAAGUAUUAUGUUACGCCGUUCGGAUCUGCACUUCC	-0.269
AGUCCUGUGCUACACAUCGUAUGUACCGAAUCGGGGAAAGGGGUUUGGGGAAAGGGGAAAGUAUUAUGUUACGCCGUUCGGAUCUGCACU	0.648
CUGUGCUACACAUCGUAUGUACCGAAUCGGGGAAAAAAAGGGGUUUUUUUGGGGUUUGGGGAAAGUAUUAUGUUACGCCGUUCGGAUCUG	-0.157
CCUGUGCUACACAUCGUAUGUACCGAAUCGGGGUUUUUUGGGUUUUUUGGGUUUUUUGGGAAAGUAUUAUGUUACGCCGUUCGGAUCUGC	-0.553

Series 5 — method: protein binding microarray; form: double-stranded DNA, one strand shown; matrix: in vitro; concentration: not given; reference: not given; reading: higher = stronger binding
Target: Histone acetyltransferase KAT6A, winged helix 2, GST fusion (KAT6A, Homo sapiens, UniProt Q92794, residues 85-181)
Setting: 8-mer, flanks averaged, mean of 2 arrays, mostly near background
Target sequence (chain): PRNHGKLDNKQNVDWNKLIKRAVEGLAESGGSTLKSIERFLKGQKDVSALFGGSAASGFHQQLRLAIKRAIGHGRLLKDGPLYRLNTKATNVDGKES
Sequence	E-score
GCAGCGAA	0.17
CGAGCGAG	0.275
CGTCGAAC	0.0423
CGCGGCTA	0.122
ACGCAGAA	0.157
GTTTCGTA	0.0824
AAAAGAGT	-0.0694
GCCCTTCC	0.0839
CTTGTGTC	-0.0464
ATCGAATC	0.0195
CTGAACAC	0.0442
CGACGATC	0.112
GTCCTTAA	0.0515
ATTTCACA	-0.00982
ATTTTCTG	0.00988
AATTTCAC	0.132
CAGACGAA	0.117
ACCTGTAG	-0.0756
ATCTTCAA	-0.0919
ACCGCTAA	0.00464
GGGCGTGA	0.187
ATCTGGGA	-0.098
CCTCATAC	-0.0523
CCAAATTC	0.0658
CCCGTTGA	0.0231
